Published values gathered from unrelated publications.
Numbered parts are unrelated; each lists some results of a single study.

Block 1 — method: protein binding microarray; form: double-stranded DNA, one strand shown; medium: in vitro; tested at: not given; reference: not given; reading: higher = stronger binding; quantity: E-score
Target: Histone acetyltransferase KAT6A, winged helix 2, GST fusion (KAT6A, Homo sapiens, UniProt Q92794, residues 85-181)
Notes: 8-mer, flanks averaged, mean of 2 arrays, mostly near background
Construct (chain): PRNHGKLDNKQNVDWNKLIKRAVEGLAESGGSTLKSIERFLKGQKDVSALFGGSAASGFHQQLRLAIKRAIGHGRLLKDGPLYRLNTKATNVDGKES
CGGCGTGC: 0.178
ACATACTC: -0.114
ATTCCAAC: 0.15
CGCTTTAA: 0.161
AGTCTAGA: -0.163
CATAACTC: -0.19
GCACCATA: -0.048
CCCAACCG: -0.106

Block 2 — method: RNA Bind-n-Seq; form: RNA; medium: in vitro; tested at: 365 nM; reference: no-protein control; reading: higher = stronger binding; quantity: RBNS enrichment (R)
Target: RNA binding protein fox-1 homolog 2, RRM domain, GST-SBP tag (RBFOX2, Homo sapiens, UniProt O43251-10, residues 100-194)
Notes: natural RNA segment, single round, ends assumed
Shared flanks, not repeated: GGGAGUUCUACAGUCCGACGAUC … UGGAAUUCUCGGGUGCCAA
Construct (chain): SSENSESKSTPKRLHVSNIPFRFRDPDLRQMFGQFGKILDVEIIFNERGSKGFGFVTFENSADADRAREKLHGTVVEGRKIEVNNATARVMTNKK
AUGCCAACAAGAAUGCAUUGAUAUUGUGAACAUUUGUGAUAUAUGUAUUAAUAAAUAGAGCAAUUACAAGCAGCUGUGUUCUGGUUCUGUUCUUUGGUUCUUAUGAAAGU: 0.437
GGAGGCUCCCGAGGGGAAGGGGCGGUGCCCACACCGGGGACAGGCCGCAGCUCCAUUUUCUUAUUGCGCUGCUACCGUUGACUUCCAGGCACGGUUUGGAAAUAUUCACA: 4.07
AUCUAUGAGCCCCCUCUCUCAUUCUGUGAUGGGUAUAGCAGAAACCUUCCUGCUUUUCACCAGGAACUCUAGACUGGACGCAGUCUUCUUCCUACUGGCUGGGGUUUCUC: 0.25
UUAUUGUAUGGCAUAGGACUGGCAUUAUAUAGCAGAAAUCAACUACUGUACAAUUUCUUGGGGUUAACCAUCUUUAGUUAAAUGGAAUUUUAAUUUAAAUGACGCUUUGC: 0.507
CUGAUUUUUCCUCCAUCCUGCUUACCACCUCCCUGGGUACUUACAGCCUUCUCUUGGGAACAGCCGGGGCCAGGACUGGGUCACCUAUGAGCUGAAUCAGCAUCUCCUCC: 0.393
GAUGGAUCAUAGGAUUCUGAUUUUAUGUGAAAUUUUGUCUAAUUCAUUAAAGCAGUUGCUUUUCCUAUGCUGUUUCAUUUCACCGUCUUUGUCACCACCCGCCUAAGUAC: 0.492
UGGGUGAAAGUGGUUCUAGAAACUGCACUGAAUAGUAGUAAAGCAAUAAGGCCCAAUUCAUCCCACAGCACUGAUCAUCUUUUAAUAUCCCACCCUAAGCGAACGGUAAG: 0.405
UGGGACCUACUUUGUUUUUUGUUAUUUAUGACCUUGUUUAAAGAAAAUAAAUAUCUCCCAACCUUUAUUGGUCUGGUCUUUCUCUGUGGAAUUGUCCUUAUUUCUGCUGA: 0.431

Block 3 — method: RNA Bind-n-Seq; form: RNA; medium: in vitro; tested at: 200 nM; notes: whole 134-nt RNA, ends assumed; added: 150 mM KCl; reference: input library; reading: higher = stronger binding; quantity: log2 enrichment
Target: Fragile X messenger ribonucleoprotein 1, C-terminal low-complexity region (Fmr1, Mus musculus, UniProt P35922)
Shared flanks, not repeated: GGGAGUUCUACAGUCCGACGAUC … UGGAAUUCUCGGGUGUCAAGG
CACAGACAACACGCACCCACACAGACACAGAGGGAAAAAGUUGGGAUGGGGACAGGGUGCACAGCAGGGCGGGGUAGGACCCCAGCCCCU: 0.458
GCAGGAAGUAAAAACAAAUGGAAAUGCUUCGGAUAGUGGCAGGGGUGGAGGUUGCUAAGGAAAGGGUGGGAUGGGAGUGGGUAAAGAGUU: 0.239
UUCACACCAAGCUGGGGAACAUCAAGACCUUAAACCUGGCAGGCAACCUCCUAGAGAGUCUGAGUGGCCUGCACAAGCUCUACUCACUGG: -1.24
AAGUCCUGUGCUACACAUCGUAUGUACCGAAUCGGGUUUUGGGUUUUGGGUUUUGGAAAGUAUUAUGUUACGCCGUUCGGAUCUGCACUU: -0.381
ACCAUGCAGGUGGGCAUCUUUGGGAAGUGGGGCAAGGGGGGGAUAGGGAGGGGGGUAACACUUUCGGAACAGGUGGUCCCAGGUCGUUUC: 1.28
CACAGACAACACGCACCCACACAGACAAAAAGGGAAGGGGUUGGGAUGGGGACAGGGUGCACAGCAGGGCGGGGUAGGACCCCAGCCCCU: 1.19

Block 4 — mode: inhibitor; tested at: 20 µM; quantity: inhibition
Target: Replicase polyprotein 1ab, nsp13 helicase (rep, Severe acute respiratory syndrome coronavirus 2, UniProt P0DTD1)
COc1ccc2cc1Oc1cc3c(cc1OC)CC[N+](C)(C)[C@H]3Cc1ccc(cc1)Oc1c(OC)c(OC)cc3c1[C@@H](C2)[N+](C)(C)CC3: -1.11%
Nc1ncnc2c1ncn2CCOCP(=O)(O)O: -3.93%
COc1ccc(-c2ccc(=N)n(CCCC(=O)O)n2)cc1: 8.8%
CC1(O)CCC(C(C)(C)O)CC1 (stereo not shown): 8.85%
CN1[C@@H]2CC[C@H]1CC(OC(=O)N1Cc3ccccc3NC1=O)C2 (stereo partly shown): 5.51%
Cc1ccc(C(=O)N(CCCN)[C@@H](c2oc3cc(Cl)ccc3c(=O)c2Cc2ccccc2)C(C)C)cc1: 0.9%
Cc1ccc(NC(=O)c2cccc(N(C)C)c2)cc1NC(=O)c1ccc(O)cc1: 4.17%
CC(C)(CO)CCCCCCC(C)(C)CO: -3.37%
O=C1OC(c2ccc(O)cc2)(c2ccc(O)cc2)c2ccccc21: 1.8%
C=C[C@]1(C)C[C@@H](OC(=O)CS[C@@H]2C[C@H]3CC[C@@H](C2)N3C)[C@]2(C)[C@H](C)CC[C@]3(CCC(=O)[C@H]32)[C@@H](C)[C@@H]1O: 5.03%
CO/N=C(\N)c1ccc(-c2ccc(-c3ccc(/C(N)=N/OC)cc3)o2)cc1: 5.23%
O=C(O)c1cc(O)c2ccc(Cl)cc2n1: -1.13%
COc1cc2c(NC3CCN(C)CC3)nc(N3CCCN(C)CC3)nc2cc1OCCCN(C)C: 51.3%
COc1cccc(-c2cc(NCc3ccc4c(c3)OCO4)nc(N)n2)c1: 4.82%
Cc1ncc([N+](=O)[O-])n1C: 5.57%
O=C(O)/C=C1\CCCc2ccccc2C1O (stereo not shown): 3.4%
COCC[n+]1c2c(n(Cc3cnccn3)c1C)C(=O)c1ccccc1C2=O: 17.9%
CC[C@@H](C(=O)[C@@H](C)[C@@H](O)[C@H](C)[C@@H]1O[C@@H]([C@@H](CC)C(=O)O)CC[C@@H]1C)[C@H]1O[C@]2(C=C[C@@H](O)[C@]3(CC[C@@](C)([C@H]4CC[C@](O)(CC)[C@H](C)O4)O3)O2)[C@H](C)C[C@@H]1C: 3.78%
COc1ccc(O)cc1: 6.98%
Cc1ccccc1NC(=N)Nc1ccccc1C: 5.91%
COc1ccc(-c2nc3cc(C4=NNC(=O)CC4C)ccc3[nH]2)cc1 (stereo not shown): -5.47%
CC(C)(C)NCC(O)COc1cccc2[nH]c(=O)[nH]c12 (stereo not shown): 1.68%
Nc1ccn([C@@H]2C(F)=C(CO)[C@@H](O)[C@H]2O)c(=O)n1: 9.44%
N#Cc1cnc2cnc(NCc3cccnc3)cc2c1Nc1ccc(F)c(Cl)c1: -1.27%
Clc1cccc(-n2nnnc2NCc2ccccc2Oc2ccccn2)c1Cl: 10.3%

Block 5 — cell line: HEK-293T/ACE2; tested at: concentration not given; time: 16 (unit not given); reference: vehicle; quantity: viability
CCCOc1ccc(C(=O)OCCN(CC)CC)cc1N: 101%
Cc1ccccc1C(=O)Nc1ccc(C(=O)N2CCCC(O)c3cc(Cl)ccc32)c(C)c1 (stereo not shown): 104%
C[C@]1(O)CC[C@H]2[C@@H]3CCC4=CC(=O)CC[C@]4(C)[C@@]3(F)[C@@H](O)C[C@@]21C: 102%
Nc1cc(N2CCCCC2)nc(N)[n+]1[O-]: 99.5%

Mixed results
c1ccc2sc(SSc3nc4ccccc4s3)nc2c1  inhibition (Replicase polyprotein 1ab, main protease (rep, Severe acute respiratory syndrome coronavirus 2, UniProt P0DTD1); enzyme activity, inhibitor; 20 µM, hit confirmation): 109%

For quick reference, copied from above (block 2):
GGAGGCUCCCGAGGGGAAGGGGCGGUGCCCACACCGGGGACAGGCCGCAGCUCCAUUUUCUUAUUGCGCUGCUACCGUUGACUUCCAGGCACGGUUUGGAAAUAUUCACA: 4.07
AUCUAUGAGCCCCCUCUCUCAUUCUGUGAUGGGUAUAGCAGAAACCUUCCUGCUUUUCACCAGGAACUCUAGACUGGACGCAGUCUUCUUCCUACUGGCUGGGGUUUCUC: 0.25
UUAUUGUAUGGCAUAGGACUGGCAUUAUAUAGCAGAAAUCAACUACUGUACAAUUUCUUGGGGUUAACCAUCUUUAGUUAAAUGGAAUUUUAAUUUAAAUGACGCUUUGC: 0.507
CUGAUUUUUCCUCCAUCCUGCUUACCACCUCCCUGGGUACUUACAGCCUUCUCUUGGGAACAGCCGGGGCCAGGACUGGGUCACCUAUGAGCUGAAUCAGCAUCUCCUCC: 0.393
GAUGGAUCAUAGGAUUCUGAUUUUAUGUGAAAUUUUGUCUAAUUCAUUAAAGCAGUUGCUUUUCCUAUGCUGUUUCAUUUCACCGUCUUUGUCACCACCCGCCUAAGUAC: 0.492
UGGGUGAAAGUGGUUCUAGAAACUGCACUGAAUAGUAGUAAAGCAAUAAGGCCCAAUUCAUCCCACAGCACUGAUCAUCUUUUAAUAUCCCACCCUAAGCGAACGGUAAG: 0.405
